Measured values from different studies.
Protocols differ between the studies behind these lines.

| Structure (SMILES) | method | species | sample | route | dose | notes | half-life [h] |
| --- | --- | --- | --- | --- | --- | --- | --- |
| CN[C@H](CC(C)C)C(=O)N[C@H]1C(=O)N[C@@H](CC(N)=O)C(=O)N[C@H]2CN[C@H]3C(=O)N[C@H](C(=O)N[C@H](C(=O)NCCCNC(=N)N)c4cc(O)cc(O)c4-c4cc3ccc4O)[C@H](O)c3ccc(c(Cl)c3)Oc3cc2cc(c3O[C@@H]2O[C@H](CO)[C@@H](O)[C@H](O)[C@H]2O[C@H]2C[C@](C)(NCc3ccc(-c4ccc(Cl)cc4)cc3)[C@H](O)[C@H](C)O2)Oc2ccc(cc2Cl)[C@H]1O | – | mouse | – | intravenous | 50 mg/kg | – | 7.1 |
| CC(C)C[C@H](NC(=O)CNC(=O)[C@H](CCC(N)=O)NC(=O)[C@H](CC(C)C)NC(=O)[C@H](CC(C)C)NC(=O)[C@H](CCCNC(=N)N)NC(=O)[C@H](CCC(N)=O)NC(=O)[C@H](CC(C)C)NC(=O)[C@H](CCCNC(=N)N)NC(=O)[C@H](C)NC(=O)CNC(=O)[C@H](CCC(=O)O)NC(=O)[C@H](CCCNC(=N)N)NC(=O)[C@H](CC(C)C)NC(=O)[C@H](CCCNC(=N)N)NC(=O)[C@H](CO)NC(=O)[C@H](CC(C)C)NC(=O)[C@H](CCC(=O)O)NC(=O)[C@H](CO)NC(=O)[C@@H](NC(=O)[C@H](Cc1ccccc1)NC(=O)[C@@H](NC(=O)CNC(=O)[C@H](CC(=O)O)NC(=O)C(C)(C)NC(=O)[C@@H](N)Cc1c[nH]cn1)[C@@H](C)O)[C@@H](C)O)C(=O)N[C@@H](CC(C)C)C(=O)N[C@@H](CCC(N)=O)C(=O)NCC(=O)N[C@@H](CC(C)C)C(=O)N[C@H](C(=O)NCC(=O)N[C@@H](CCCCNC(=O)COCCOCCNC(=O)COCCOCCNC(=O)CC[C@H](NC(=O)CCCCCCCCCCCCCCCCC(=O)O)C(=O)O)C(N)=O)C(C)C | – | NMRI mouse | plasma | – | – | – | ≤ 6 |
| CCCCCCCCCCCCCCCC(=O)NCCCC[C@H](NC(=O)[C@H](CCC(=O)O)NC(=O)[C@H](Cc1ccc(O)cc1)NC(=O)[C@H](CCC(=O)O)NC(=O)COCC(=O)NCCCOCCOCCOCCCNC(=O)[C@H](Cc1ccccc1)NC(=O)[C@H](CC(N)=O)NC(=O)[C@H](Cc1c[nH]cn1)NC(=O)[C@@H](NC(=O)[C@H](CC(=O)O)NC(=O)[C@H](CCC(N)=O)NC(=O)[C@H](CC(C)C)NC(=O)[C@H](CCCCN)NC(=O)[C@H](CCCCN)NC(=O)[C@H](CCCNC(=N)N)NC(=O)[C@H](CC(C)C)NC(=O)[C@H](Cc1c[nH]c2ccccc12)NC(=O)[C@H](CCC(=O)O)NC(=O)[C@@H](NC(=O)[C@H](CCCNC(=N)N)NC(=O)[C@H](CCC(=O)O)NC(=O)[C@H](CCSC)NC(=O)[C@H](CO)NC(=O)[C@H](CC(N)=O)NC(=O)[C@H](CC(C)C)NC(=O)[C@H](Cc1c[nH]cn1)NC(=O)[C@H](CCCCN)NC(=O)CNC(=O)[C@H](CC(C)C)NC(=O)[C@H](CC(N)=O)NC(=O)[C@H](Cc1c[nH]cn1)NC(=O)[C@H](CCSC)NC(=O)[C@H](CC(C)C)NC(=O)[C@H](CCC(N)=O)NC(=O)[C@@H](NC(=O)[C@H](CCC(=O)O)NC(=O)[C@H](CO)NC(=O)[C@@H](NC(=O)[C@@H](N)CO)C(C)C)[C@@H](C)CC)C(C)C)C(C)C)C(=O)N[C@@H](CCC(=O)O)C(=O)N[C@@H](Cc1ccc(O)cc1)C(=O)N[C@@H](CCC(=O)O)C(N)=O | ELISA | CD-1 mouse | blood | intravenous | 10 nmol/kg | monophasic fit 0.03-7 h | 0.36 |
| CN[C@H](CC(C)C)C(=O)N[C@H]1C(=O)N[C@@H](CC(N)=O)C(=O)N[C@H]2C(=N)N[C@H]3C(=O)N[C@H](C(=O)N[C@H](C(=O)NCCC[N+](C)(C)C)c4cc(O)cc(O)c4-c4cc3ccc4O)[C@H](O)c3ccc(c(Cl)c3)Oc3cc2cc(c3O[C@@H]2O[C@H](CO)[C@@H](O)[C@H](O)[C@H]2O[C@H]2C[C@](C)(NCc3ccc(-c4ccc(Cl)cc4)cc3)[C@H](O)[C@H](C)O2)Oc2ccc(cc2Cl)[C@H]1O | – | mouse | – | intravenous | 10 mg/kg | – | 2.2 |
| CCC1CC(c2ccc(C(=O)O)cc2C)=NN1c1ccc(C#N)c(Cl)c1 (centres unmarked) | – | mouse or human | microsomes or hepatocytes | – | – | – | > 1 |
| Cc1sc2c(c1C)C(c1ccc(Cl)cc1)=N[C@@H](CC(=O)OC(C)(C)C)c1nnc(C)n1-2 | – | CD1 mouse, male | plasma | intravenous | 5 mg/kg | – | 0.897 |
| O=C(c1cc(Cc2n[nH]c(=O)c3ccccc23)ccc1F)N1CC(CNC2CC2)C1 | – | female ICR mouse | plasma | oral | 60 mg/kg | – | 0.97 |
| CCOc1ccccc1-n1c(CN2CCNCC2)nc2ccccc2c1=O | – | C57BL/6 mouse, male | plasma | intravenous | 1 mg/kg | – | 2.38 |
